Experimental data from different studies.
Lines come from different studies, so protocols differ. Several values in a cell are separate wells, animals, samples, runs or records. Numbers after ± are the reported error.

Compound | test | test system | setting | how to read | quantity | value
Cc1ncc2n1-c1ccc(Cl)cc1C(c1ccccc1F)=NC2 | self-administration, progressive-ratio schedule | rhesus monkey | intravenous | – | ED50 | 0.007 mg/kg/injection
CC(C)(C)NCCc1c[nH]c2cccc(O)c12.CC(C)(C)NCCc1c[nH]c2cccc(O)c12.O=C(O)/C=C/C(=O)O | – | C57BL/6J mice | subcutaneous, 10 mg/kg, 30 min | – | distance travelled | 2940 ± 426 cm
C[C@]12CC[C@H]3[C@@H](CC=C4CC(O)CC[C@@]43CO)[C@@H]1CCC2O (stereo partly shown) | refers to: VEGF | rat, GAN diet-induced MASH, plasma, pooled | dose not given | reference: vehicle | fold reduction | ~1.2 fold
NCCc1ccc(Oc2ccc(O)cc2)c(I)c1 | – | wild-type mice | ip, 25 mg/kg, 30 min | reference: saline | maximum body temperature change | -2.7 ± 0.4 °C
C=CCN1CC[C@]23c4c5ccc(O)c4O[C@H]2C(=O)CC[C@@]3(O)[C@H]1C5 | antinociception, hot plate | male ICR-CD1 mice | subcutaneous, 5 mg/kg, 30 min | – | maximum possible effect | -1.37% and 7.96% and 4.97% and 2.43% and 3.75% and -26.9%
CC(C)NCCc1c[nH]c2cccc(O)c12.O=C(O)/C=C/C(=O)O | – | C57BL/6J mice | subcutaneous, 1 mg/kg, 30 min | – | distance travelled | 2410 ± 227 cm
CN1CC[C@]23c4c5ccc(O)c4O[C@H]2[C@@H](O)C=C[C@H]3[C@H]1C5 | acetic acid-induced writhing | ICR mice | intraperitoneal, 10 mg/kg, 0.25 h, writhing counted over 15 min, together with: 0.6% acetic acid | – | inhibition | ~98%
COC(=O)[C@H]1[C@@H](OC(=O)c2ccccc2)C[C@@H]2CC[C@H]1N2C | locomotor activity, refers to: total distance traveled | C57BL/6J mice (male) | subcutaneous | – | ED50 | 4.75 ± 0.43 mg/kg
CCCCNCCc1c[nH]c2cccc(O)c12.O=C(O)/C=C/C(=O)O | – | C57BL/6J mice | subcutaneous, 0.1 mg/kg | – | head twitch count | 4.3 ± 0.9
NCC1(CC(=O)O)CCCCC1 | mechanical allodynia, von Frey | rat, chronic constriction injury | oral, tested 10 to 300 mg/kg | – | minimum efficacious dose | 30 mg/kg
COC(=O)[C@H]1[C@@H](OC(=O)c2ccccc2)C[C@@H]2CC[C@H]1N2C | – | mouse, nucleus accumbens | i.p., 20 mg/kg, single injection | – | acetylcholine signal | increased
CC1(C)C(C(=O)c2cn(CCCCCF)c3ccccc23)C1(C)C | Δ9-THC discrimination substitution | C57BL/6J male mice | ip, 30 min pre-session, together with: trained on 5.6 mg/kg Δ9-THC | – | ED50 | 3.5 µmol/kg
CCNCCc1c[nH]c2cccc(O)c12.CCNCCc1c[nH]c2cccc(O)c12.O=C(O)CCC(=O)O | – | C57BL/6J mice | subcutaneous, 3 mg/kg | – | head twitch response | 39 ± 6.3 count/30 min
